Measurements pooled from the literature.
“And” joins repeats or separate records; there may be more than shown. ± gives the spread as reported.

Structure (SMILES) | target or system | test | test system | conditions | scale | measurement | result
CCc1nc(C(N)=O)c(Nc2ccc(N3CCC(N4CCN(C)CC4)CC3)c(OC)c2)nc1NC1CCOCC1 | – | – | processed mouse plasma QC samples | 4 °C | – | autosampler stability time | ≤ 24 h
c1cc2ccc3ccc4ccc5cccc6c(c1)c2c3c4c56 | – | – | polyethylene-water partitioning | PAH compilation | – | literature range of log K | 5.81 to 7.36 log units
Cn1cc(-c2ccc(-c3cncc(Cl)c3N3CCC4(CCNC4=O)CC3)cc2)cn1 | COLO 205 | gene expression, microarray, measured: ZFP14 mRNA | – | concentration not given, 2 h | baseline: untreated cells | log2 fold change | 1.87
CCO[C@H]1CCN(Cc2c(OC)cc(C)c3[nH]ccc23)[C@H](c2ccc(C(=O)O)cc2)C1 | – | – | human mild hepatic impairment, plasma | oral, 200 mg single dose, geometric mean | – | unbound half-life | 14.5 h
N[C@@H](CS)C(=O)O | – | binding, MIDAS equilibrium dialysis LC-MS | A2AR-BRIL thermostabilized | concentration not given | baseline: no-protein control | log2 fold change | 0.0537
CO[C@H]1C[C@@H]2CC[C@@H](C)[C@@](O)(O2)C(=O)C(=O)N2CCCC[C@H]2C(=O)O[C@H]([C@H](C)C[C@@H]2CC[C@@H](OC(=O)NCCOCCOCCOCCOCCOCCOCCOCCOCCC(=O)N3CCc4cc(Cn5nc(-c6ccc7oc(N)nc7c6)c6c(N)ncnc65)ccc4C3)[C@H](OC)C2)C[C@@H](O)[C@H](C)/C=C(\C)[C@@H](O)[C@@H](OC)C(=O)[C@H](C)C[C@H](C)/C=C/C=C/C=C/1C | – | – | human patients, plasma | intravenous, 10 mg, cycle 1 day 1, weekly dosing, 1 h infusion, arithmetic mean | – | Cmax | 362 ng/mL
OC[C@H]1O[C@@H](c2ccc(Cl)c(Cc3ccc(O[C@H]4CCOC4)cc3)c2)[C@H](O)[C@@H](O)[C@@H]1O | – | – | Japanese type 1 diabetes patients, blood | 10 mg, day 28 | baseline: baseline | change in HDL cholesterol | 0.58 mg/dL
C=CC(=O)Nc1cc(Nc2nccc(-c3cn(C)c4ccccc34)n2)c(OC)cc1N(C)CCN(C)C | – | storage stability | human dried blood spots | 5 h, -80 °C, high QC level | – | recovery | 95.5%
COc1ccc2c(c1)CN(C(=O)CCN1CCC(Cc3ccccc3)CC1)CC[S@@+]2[O-] | – | telemetry | conscious male beagle dogs | intravenous, 4 mg/kg, 24 h | – | QT interval | 222 ± 3 ms
N#Cc1cccc(-c2ccc3ncc(-c4cc(F)cc(F)c4)c(N4CCC(N)CC4)c3c2)c1O | – | – | human, urine and faeces | oral, 20 mg, 14C-labelled | baseline: dose | radioactivity recovered | 41%
C[C@@H](N)C1CCN(S(=O)(=O)c2cccc3cnccc23)CC1 | – | – | healthy volunteers, plasma | oral, 150 mg, fed, single dose | – | AUC(0-t) | 42 ng·h/mL
Cc1ccc(Sc2ccccc2N2CCNCC2)c(C)c1 | – | measured: protein in urine | healthy adult men | oral, 10 mg daily, 12 days | – | participants with TEAE | 0%
Cl.[2H]C([2H])([2H])CC(=O)c1cnc(NC(=O)C2CC2)cc1Nc1cccc(-c2ncn(C([2H])([2H])[2H])n2)c1OC | – | geometric mean | human | oral, 100 mg single dose, fasted, liquid | – | half-life | 8.11 h
Cc1ccc([C@@H]2O[C@H](CO)[C@@H](O)[C@H](O)[C@H]2O)cc1Cc1ccc(-c2ccc(F)cc2)s1 | – | measured: inorganic phosphorus | Japanese type 2 diabetes patients | 25 mg, day 4, 24 h urine collection | baseline: baseline | urinary phosphate excretion change | 1.25 mg
NC1(C(=O)N[C@@H](CCO)c2ccc(Cl)cc2)CCN(c2nc[nH]c3nccc2-3)CC1 | – | – | metastatic CRPC patients | 400 mg b.i.d., grade 3 to 4, treatment-related, with: enzalutamide 160 mg daily | – | incidence of Arthralgia | 0%
Cc1c(-c2ccc(N3CCc4cccc(C(=O)Nc5nc6ccccc6s5)c4C3)nc2C(=O)O)cnn1CC12CC3(C)CC(C)(C1)CC(OCCNCC[C@H](O)CO)(C3)C2 | – | – | beagle dog, male, anaesthetised | intravenous infusion, 0.3 mg/kg/min, 120 min | baseline: vehicle | dP/dt at 50 change | -35%
Cc1nc2cccc(OCC(C)(C)C(=O)NC(C)C)c2c(N)c1C(=O)O | – | – | male Swiss albino CD-1 mouse, bone marrow | oral, 1000 mg/kg, 36 h | – | micronucleated PCE per 14000 PCE | 9
O=C(Nc1nc2cccc(-c3ccc(CN4CCS(=O)(=O)CC4)cc3)n2n1)C1CC1 | – | measured: joint swelling | human rheumatoid arthritis patients | oral, 30 mg once daily, 4 weeks, regardless of relatedness | – | treatment-emergent adverse events | 0%
O=C(COc1ccc(Cl)cc1)NC12CC(c3nnc([C@H]4C[C@@H](OC(F)(F)F)C4)o3)(C1)C2 | – | – | healthy human volunteers fasted, plasma | oral, 45 mg single dose, arithmetic mean | – | AUC | 30.9 µM·h
O=C(N[C@H](Cc1c[nH]c2ccccc12)C(=O)Nc1ccncc1)c1ccc(-c2cc(C(F)(F)F)ccc2F)cc1F | – | – | Swiss Webster mouse, female, lung | oral, 50 mg/kg, 2 h, 20% Kolliphor vehicle | – | concentration | 54.2 µM
CC(=O)N[C@@H](CC(=O)O)C(=O)O | – | binding, MIDAS equilibrium dialysis LC-MS | A2AR-BRIL thermostabilized | concentration not given | baseline: no-protein control | log2 fold change | -0.0919

Structure (SMILES) | target or system | test | test system | conditions | scale | measurement | result
COc1cc([C@H]2OC[C@H]3[C@@H]2CO[C@@H]3c2ccc(O[C@@H]3O[C@H](CO)[C@@H](O)[C@H](O)[C@H]3O)c(OC)c2)ccc1O[C@@H]1O[C@H](CO)[C@@H](O)[C@H](O)[C@H]1O | – | post-procedure stability | rat plasma | 1000 ng/mL, 1 h, room temperature | – | accuracy | 99.2%
N#Cc1ccc2c(c1)[C@H]1CCCN(C(=O)c3ccc4[nH]cnc4c3)[C@H]1C2 | – | – | human | 20 mg, end of trial | baseline: baseline | cortisol level change | -119 nmol/L
O=S(=O)(c1ccc(-c2ccc3nccc(Nc4ccncn4)c3c2)cc1)N1CCOCC1 | – | – | female BALB/c mice, brain homogenate | intraperitoneal, 10 mg/kg, 0.08 h, mean | – | brain concentration | 29.1 ng/mL
Oc1ccc(/C=C/c2cc(O)cc(O)c2)cc1 | – | – | rat, azoxymethane-injected, blood at sacrifice | 10 mg/kg | – | blood urea nitrogen | 18.1 mg/dL and 22.3 mg/dL and 18.8 mg/dL
C=C[C@@](C)(/C=C/c1ccc(O)cc1)CCC=C(C)C | – | three freeze-thaw cycles | rat plasma | 1000 ng/mL, -70 °C freeze | – | accuracy | 89.6%
Cn1cc(-c2ccc(S(=O)(=O)[C@@H]3C[C@@H](C(=O)NC4(C#N)CC4)N(C(=O)C4(C(F)(F)F)CC4)C3)c(C(F)(F)F)c2)cn1 | – | noncompartmental analysis | human, plasma | oral, 100 mg, day 1, with food, geometric mean | – | t_half | 539 min
Cc1nc(-c2ccc(OCC(C)C)c(C#N)c2)sc1C(=O)O | – | – | KM mouse, chronic hyperuricaemia model | dose not given, day 21 | – | body weight | 35.2 g and 39.2 g and 43 g and 37.6 g and 32.8 g and 32.4 g
Cc1cc(-c2nccc3c2ccn3CC(=O)Nc2ccc(-c3cnccn3)cn2)ccn1 | – | – | human | MAD part, 15 mg once daily | – | subjects with any IMP-related TEAE | 22.2%
CNC(=O)c1ccc(-c2cnc3ncc(Cc4ccc5ncccc5c4)n3n2)cc1F | – | – | other cancer patients | oral, 600 mg twice daily, all grades RP2D expansion | – | abdominal pain incidence | 6%
CCN1/C(=C/C(C)=O)Sc2ccc(F)cc21 | – | – | cynomolgus monkey | oral, 100 mg/kg, 1 h post-dose | – | systolic blood pressure | 109 ± 5 mmHg
COCc1cc(C(=O)Nc2cc([C@H]3CC[C@@H](OC(=O)NC(C)C)C3)[nH]n2)n(C)n1 | – | – | OVCAR-3 xenograft, NOD/SCID gamma mice, plasma | oral, 175 twice daily, tumour growth inhibition study | – | AUC(0-24h) | 46.6 µM·h
CCOC(=O)c1c(NC(=O)CNC(C)C)sc2c1CCCCC2 | – | – | mouse, brain | intraperitoneal, 100 mg/kg | – | brain AUC(0-1 h) | 9690 ng·h/g
O=C(c1nc2n(n1)[C@H](c1ccccc1)C[C@@H]2F)C1CC1 | – | – | human | 25 mg single dose, mean | – | renal clearance | 0.185 mL/min
C[C@H]1Oc2cc(cnc2N)-c2c(nn(C)c2C#N)CN(C)C(=O)c2ccc(F)cc21 | – | – | Balb/c nude mouse, female, plasma | 5 mg/kg twice daily for 5 days, 1 h | – | free plasma concentration | 0.935 µM
Cc1cc(NC2CCN(C(=O)OC3CCN(C(=O)/C=C/CN(C)C)C3)CC2)n2ncc(C(C)C)c2n1 (stereo not drawn) | – | – | patients with advanced solid tumours | dose not given, QD arm, grade 3 or higher | – | patients with Vomiting | 2%
Cc1cc(-c2nnc(N)nc2-c2ccc(F)cc2)cc(Cl)n1 | – | measured: rash | post-IO other solid tumour patients | oral, 100 mg once daily, treatment-related, grade 1 | – | patients with immune-mediated AE | 0%
CCCCC1=NC2(CCCC2)C(=O)N1Cc1ccc(-c2ccccc2S(=O)(=O)Nc2noc(C)c2C)c(COCC)c1 | – | – | healthy adult volunteers, plasma | oral, 50 mg, single dose, fasted, crushed tablet | – | Tmax | 3.28 h
[18F]c1ccc(-c2ccc3c(c2)[nH]c2ccncc23)cn1 | – | microPET/CT imaging | APP/PS1 mouse, AD model, brain | intravenous, 10 min | – | SUV | 0.989 ± 0.236
CCc1cc(C(=O)NC)c2nccc(N3CCc4c(cc(Cn5ccnc5)cc4-c4cn(C)nc4C(F)(F)F)C3=O)c2c1 | – | – | Sprague Dawley rats | oral, 50 mg/kg once daily, 7 days | – | serum HDL level | 1.3 ± 0.05 mmol/L
CNCCOC12CC3(C)CC(C)(CC(Cn4ncc(-c5ccc(N6CCc7cccc(C(=O)Nc8nc9ccccc9s8)c7C6)nc5C(=O)O)c4C)(C3)C1)C2 | – | – | anaesthetised male beagle dogs | intravenous bolus, 0.03 mg/kg, 30 min | – | plasma concentration | 3.3 ± 0.4 ng/mL
C[Si]1(C)O[Si](C)(C)O[Si](C)(C)O[Si](C)(C)O[Si](C)(C)O1 | – | – | air/water | concentration not given | – | entropy of phase change | 0.476 kJ/(mol·K)

A few entries again:
Structure (SMILES) | target or system | test | test system | conditions | scale | measurement | result
Cc1cc(NC2CCN(C(=O)OC3CCN(C(=O)/C=C/CN(C)C)C3)CC2)n2ncc(C(C)C)c2n1 (stereo not drawn) | – | – | patients with advanced solid tumours | dose not given, QD arm, grade 3 or higher | – | patients with Vomiting | 2%
O=C(c1nc2n(n1)[C@H](c1ccccc1)C[C@@H]2F)C1CC1 | – | – | human | 25 mg single dose, mean | – | renal clearance | 0.185 mL/min
Cc1ccc([C@@H]2O[C@H](CO)[C@@H](O)[C@H](O)[C@H]2O)cc1Cc1ccc(-c2ccc(F)cc2)s1 | – | measured: inorganic phosphorus | Japanese type 2 diabetes patients | 25 mg, day 4, 24 h urine collection | baseline: baseline | urinary phosphate excretion change | 1.25 mg
